# Assay results from different studies.
# Every numbered part comes from another study and shows a few of its results, in no order.

# Block 1 — method: aptamer microarray, sandwich; molecule type: DNA with 2'F-ANA; matrix: in vitro; tested at: 200 nM; with: Cy3 exosite-II aptamer, 400 nM; direction: higher = stronger binding; strand: GGTTGGTGTGGTTGG
# Target: Prothrombin, mature alpha-thrombin (F2, Homo sapiens, UniProt P00734)
# Setting: whole 15-mer aptamer, many near background
Modification,mean fluorescence intensity
2'F-ANA at 2 4 5 6 9 10 12 14 15,44.2 a.u.
2'F-ANA at 1 2 3 5 7 10 11 12 13 14,45.6 a.u.
2'F-ANA at 1 2 3 4 7 8 9 12 13 15,255 a.u.
2'F-ANA at 1 3 6 7 9 10 13 15,73.9 a.u.
2'F-ANA at 1 2 3 4 5 10 13 15,48.1 a.u.
2'F-ANA at 2 3 5 9 13 14 15,48.6 a.u.

# Block 2 — method: protein binding microarray; molecule type: double-stranded DNA, one strand shown; matrix: in vitro; tested at: not given; relative to: not given; direction: higher = stronger binding
# Target: Histone acetyltransferase KAT6A, winged helix 1, GST fusion (KAT6A, Homo sapiens, UniProt Q92794, residues 1-85)
# Setting: 8-mer, flanks averaged, mean of 2 arrays, mostly near background
# Construct (chain): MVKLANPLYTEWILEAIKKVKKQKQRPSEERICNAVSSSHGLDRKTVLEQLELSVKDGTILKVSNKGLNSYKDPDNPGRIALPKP
Strand,E-score
ACCTCCCC,0.0169
AACCCTAT,-0.0938
CGCAGCTC,0.0249
AACAACCC,0.0315
GGAGTGAA,-0.0988
AGTCGCAA,0.0212
AGCGGCTC,0.306
AGAGCAGA,-0.141

# Block 3 — method: universal PBM; molecule type: double-stranded DNA, one strand shown; matrix: in vitro; tested at: not given; direction: higher = stronger binding
# Target: Sal-like protein 4, full length isoform B (SALL4, Homo sapiens, UniProt Q9UJQ4-2, residues 1-616)
# Setting: 8-mer, flanks averaged, mean of replicates
# Residues (chain): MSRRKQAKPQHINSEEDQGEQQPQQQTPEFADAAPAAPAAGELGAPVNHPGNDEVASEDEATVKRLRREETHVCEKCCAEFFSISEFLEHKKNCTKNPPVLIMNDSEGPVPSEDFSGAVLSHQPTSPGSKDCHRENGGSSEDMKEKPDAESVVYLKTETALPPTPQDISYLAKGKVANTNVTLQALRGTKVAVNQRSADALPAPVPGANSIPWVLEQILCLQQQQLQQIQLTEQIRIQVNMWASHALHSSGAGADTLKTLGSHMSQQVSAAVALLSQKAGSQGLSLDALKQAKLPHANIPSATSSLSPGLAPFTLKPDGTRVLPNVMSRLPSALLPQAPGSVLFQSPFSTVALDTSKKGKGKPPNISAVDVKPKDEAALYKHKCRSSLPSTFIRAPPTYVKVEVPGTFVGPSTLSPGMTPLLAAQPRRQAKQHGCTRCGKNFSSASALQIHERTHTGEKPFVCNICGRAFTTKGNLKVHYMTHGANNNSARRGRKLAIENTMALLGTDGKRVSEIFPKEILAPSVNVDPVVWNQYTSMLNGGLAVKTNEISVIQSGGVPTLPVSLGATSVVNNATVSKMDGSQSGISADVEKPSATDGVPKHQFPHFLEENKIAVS
Strand,E-score
GAAATTAA,0.379
CTCGCATC,-0.132
CCCAAGAG,-0.172
CACTGTCG,-0.238
CCTTGAGA,0.0302

# Mixed results
Substance,target,test,test system,conditions,how to read,measurement,result
"PhoQ, residues 284 288 289 292 302 303 NSMLDC","PhoP, residues 12 14 15 18 19 NQGLL (Escherichia coli, UniProt P23836)","Sort-seq, measured: YFP reporter",E. coli,"PhoQ-PhoP variant library, with: 10 µM Mg2+","relative to: high Mg2+ state, higher = stronger signaling",fold induction,8.15

# A few entries again (block 3):
Strand,E-score
CACTGTCG,-0.238
CCTTGAGA,0.0302
